Measured values of several laboratories.
Protocols differ between the studies behind these lines. Numbers after ± are the reported error.

SMILES	test	system	conditions	scale	measurement	result
CO[C@H]1CC=C2CCN3CCC4=C(CC(=O)CC4)[C@]23C1	–	Wistar rats, intermittent ethanol access	subcutaneous, 6 mg/kg, 30 min after drinking onset	–	ethanol intake	1.2 ± 0.1 g/kg
C(=N\Cc1cc(C/N=C/c2ccc[nH]2)cc(-c2cc(C/N=C/c3ccc[nH]3)cc(C/N=C/c3ccc[nH]3)c2)c1)/c1ccc[nH]1	–	hACE2 mice, bronchoalveolar lavage fluid	dose not given	reference: control	IFN-gamma level	decreased
NC(=NN=Cc1cccs1)[S][Ru+]([Cl])([P](c1ccccc1)(c1ccccc1)c1ccccc1)[P](c1ccccc1)(c1ccccc1)c1ccccc1.[Cl-]	DPPH scavenging, absorbance	–	–	–	IC50	44 µM
CC(C)CC1NCCc2cc(O)c(O)cc21 (stereo not drawn)	ferrozine	cell-free	100 µM, DMSO solvent	–	Fe2+ chelation	95.93 ± 0.54%
CC(C)NCCCn1c(Sc2cc3c(cc2I)OCO3)nc2c(N)ncnc21	Western blot	mouse, MDA-MB-468 xenograft, tumour	5 mg/kg 3 times weekly	–	AKT decrease	57%
CCN(Cc1ccccc1)C(=O)CCc1nc(CN2CCN(C(=O)Cc3ccc(OC)c(OC)c3)CC2)no1	current clamp	DRG neurons, naive rat	1 µM	–	action potential threshold	-5.78 ± 0.56 mV
NNC(=O)c1ccccc1	hydrazine ligation kinetics, absorbance	–	concentration not given, 20 s, together with: 2-formylphenylboronic acid	–	normalised absorbance	0.596
COc1ccccc1-c1n[nH]c2nc(NC3CCN(C(=O)Cc4ccc(F)cc4F)CC3)ncc12	bead binding, competition bead pull-down, item: LINJ.19.1590	Leishmania donovani extract	10 µM	reference: vehicle	relative abundance	1.07
CC(C)C[C@@H]1NC(=O)[C@@H](Cc2c[nH]c3ccccc23)NC(=O)[C@H](CCCNC(=N)N)NC(=O)[C@@H](CCC(=O)O)NC(=O)[C@H](CCC(N)=O)NC(=O)[C@@H](CCC(=O)O)NC(=O)[C@H](CCCNC(=N)N)NC(=O)[C@@H](Cc2c[nH]c3ccccc23)NC1=O	Luminex, item: KC	LDLr-/- mice, Western diet, liver	dose not given, 4 weeks	–	cytokine level	190 ± 20 pg/g tissue
[Cu+2].c1cnc2c(c1)c1nccnc1c1cccnc12.c1cnc2c(c1)c1nccnc1c1cccnc12	DNA cleavage	supercoiled pUC19 DNA	100 µM, 30 min, together with: ascorbic acid	–	nicked circular DNA	94%
COc1ccccc1-c1n[nH]c2nc(N[C@H]3CC[C@H](NS(=O)(=O)CC(C)C)CC3)ncc12	bead binding, competition bead pull-down, item: LINJ.02.0430	Leishmania donovani extract	10 µM	reference: vehicle	relative abundance	0.85
Cc1ccc(S(=O)(=O)N2CC2C(=O)N(C)C)cc1 (stereo not drawn)	–	mouse, Lewis lung carcinoma	intraperitoneal, 170 mg/kg, 16 doses, day 11	–	tumour volume	604 mm3

Excerpt of the above:
SMILES	test	system	conditions	scale	measurement	result
NNC(=O)c1ccccc1	hydrazine ligation kinetics, absorbance	–	concentration not given, 20 s, together with: 2-formylphenylboronic acid	–	normalised absorbance	0.596
